# Results pooled from the literature.
# Each line is one published result; not all experiments were run side by side. Several values in a cell are separate wells, animals, samples, runs or records.
# Target: Phosphatidylinositol 4-kinase beta (PI4KB, Homo sapiens, UniProt Q9UBF8)
Compound,test,conditions,scale,measurement,result
C=CC(=O)Nc1cccc(-c2cnc3[nH]cc(C(=O)NC(C)(C)C)c3n2)c1,kinase activity,0.1 µM,,inhibition,4% and 2%
C=CC(=O)N1CCCC(n2c(=O)c3ncccc3n(Cc3ccc(Oc4ccccc4)cc3)c2=O)C1 (stereo not shown),"cell-free assay, competition with immobilised ligand",1 µM,,remaining binding,59%
Nc1ncc2c(n1)-c1c([nH]c3ccc(C4=CCOCC4)cc13)CCC2,"binding, competition with immobilised ligand",1 µM,,remaining binding,78%
Cc1cnc2nc1Nc1cccc(c1)COC/C=C/COCc1cc(ccc1OCCN1CCOCC1)N2,"binding, competition with immobilised ligand",0.1 µM,,remaining binding,91%
Cc1cccc(O[C@H]2CCC[C@@H](C(C)CNCc3ccncc3)C2)c1 (relative stereo),"enzyme activity, inhibitor",1 µM,,inhibition,13%
COc1cc(Nc2nc(C)cc(-c3cnn4nc(OC)ccc34)n2)cc(C(F)(F)F)c1,inhibitor,"1 µM, PIK4CB",baseline: control,remaining activity,85%
C=CC(=O)N1Cc2nc(-c3cc(-c4cc(Cl)cnc4Cl)c(F)cc3F)n(-c3ccncn3)c2C1,"cell-free assay, inhibitor",1 µM,,inhibition,8.8%
CNC(=O)C1CCN(c2cc(C)c(F)cc2NC(=O)c2ccc(-c3cc(O)ccc3C)c(C)c2)CC1,"binding, competition with immobilised ligand",1 µM,,remaining binding,100%
CN1CCN(Cc2ccc(-c3ccc(CO[C@H]4CCC[C@@H]4NC(=O)c4cc(-c5cnn(C)c5)cnc4N)cc3)cc2)CC1,"enzyme activity, inhibitor",0.1 µM,,inhibition,-13%
CCN1CCN(Cc2ccc(C(=O)Nc3ccc(C)c(NCc4cnc5[nH]ccc5c4OC)c3)cc2C(F)(F)F)CC1,"binding, competition with immobilised ligand",1 µM,,remaining binding,42%
CC(C)=CC1OC(C)(C)C2C=C3C(=O)C(Cl)=CC(O)C3C3C(O)C4OC4C(=O)C132 (stereo not shown),"cell-free assay, competition with immobilised ligand",10 µM,,remaining binding,83%
Cc1ccc(-c2c(/C=C(\C#N)C(=O)NC(C)C)n(CCCO)c3ncnc(N)c23)cc1,"cell-free assay, competition with immobilised ligand",1 µM,,remaining binding,100%
COc1c(Cl)cccc1Nc1c(-c2ccncc2C#C[C@@]2(C)CCCN2C(=O)/C=C/CN(C)C)[nH]c2c1C(=O)NCC2,"cell-free assay, competition with immobilised ligand",3 µM,,remaining binding,64%
CNC1C[S+]2CC[S+]3CC[S+](C1)[Ru-4]321([N]=C=S)[n]2c3ccc(OC)cc3c3c4c(c5cc(F)c[n+]1c5c32)C(=O)NC4=O (stereo not shown),KinomeScan,0.1 µM,baseline: untreated,remaining binding,79%
C=CC(=O)N1CCc2ccc(-n3c(=O)ccc4cnc5ccc(-c6cnn(C)c6)cc5c43)cc21,KINOMEscan,1 µM,baseline: DMSO control,remaining binding,100%
COc1cc(Nc2nccc(-c3cnn4nc(OC)ccc34)n2)cc(C(F)(F)F)c1,"binding, competition with immobilised ligand",1 µM,,remaining binding,100%

# A few entries again:
Compound,test,conditions,scale,measurement,result
C=CC(=O)Nc1cccc(-c2cnc3[nH]cc(C(=O)NC(C)(C)C)c3n2)c1,kinase activity,0.1 µM,,inhibition,4% and 2%
